Measured values pooled from the literature.
Lines come from different studies, so protocols differ. Several values in a cell are separate wells, animals, samples, runs or records. Numbers after ± are the reported error.
Sequence of UniProt Q12809 (whole entry, looked up): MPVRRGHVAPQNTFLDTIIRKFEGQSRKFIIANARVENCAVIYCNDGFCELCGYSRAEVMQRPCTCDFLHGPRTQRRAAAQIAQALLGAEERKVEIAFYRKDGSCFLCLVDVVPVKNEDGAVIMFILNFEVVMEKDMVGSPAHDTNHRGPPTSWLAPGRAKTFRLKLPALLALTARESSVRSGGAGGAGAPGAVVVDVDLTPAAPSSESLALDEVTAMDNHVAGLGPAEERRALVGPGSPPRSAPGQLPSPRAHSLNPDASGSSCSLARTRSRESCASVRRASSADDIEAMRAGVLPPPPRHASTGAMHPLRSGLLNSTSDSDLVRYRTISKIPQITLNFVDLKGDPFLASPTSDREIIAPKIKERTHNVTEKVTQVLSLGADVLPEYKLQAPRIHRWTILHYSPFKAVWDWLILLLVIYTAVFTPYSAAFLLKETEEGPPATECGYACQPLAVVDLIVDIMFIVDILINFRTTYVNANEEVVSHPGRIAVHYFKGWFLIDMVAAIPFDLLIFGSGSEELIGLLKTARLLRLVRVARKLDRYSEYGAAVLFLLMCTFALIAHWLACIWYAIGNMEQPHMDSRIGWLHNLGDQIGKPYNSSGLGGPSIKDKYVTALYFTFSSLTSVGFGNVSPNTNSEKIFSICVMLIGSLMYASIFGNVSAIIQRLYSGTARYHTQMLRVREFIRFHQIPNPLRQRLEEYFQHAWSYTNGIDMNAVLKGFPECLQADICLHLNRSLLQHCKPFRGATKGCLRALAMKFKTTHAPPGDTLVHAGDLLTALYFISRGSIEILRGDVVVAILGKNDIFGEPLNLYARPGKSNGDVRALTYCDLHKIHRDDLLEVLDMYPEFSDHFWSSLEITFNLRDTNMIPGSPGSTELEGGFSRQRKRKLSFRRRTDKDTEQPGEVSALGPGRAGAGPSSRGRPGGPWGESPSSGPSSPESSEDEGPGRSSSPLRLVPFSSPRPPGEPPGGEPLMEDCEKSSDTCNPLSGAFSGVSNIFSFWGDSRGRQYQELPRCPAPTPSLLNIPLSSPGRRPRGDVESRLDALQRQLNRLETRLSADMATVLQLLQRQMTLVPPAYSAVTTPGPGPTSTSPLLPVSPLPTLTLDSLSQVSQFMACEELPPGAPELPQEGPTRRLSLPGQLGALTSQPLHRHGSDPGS

With `CNC(=O)[C@@H](NC(=O)[C@H](CC(C)C)[C@H](O)C(=O)NO)C(C)(C)C` the remaining activity was 89% and 90.5% and 89.6% (Daboia russelii venom proteases (SVMP); protease activity, inhibitor; MP population; 0.1 µM, with: azocasein substrate; reference: venom alone).
The AUC(0-inf) of `Cn1cnc(Cn2c(=O)[nH]/c(=N\c3cc4cn(C)nc4cc3Cl)n(Cc3cc(F)c(F)cc3F)c2=O)n1` is reported as 996 µg·h/mL (human, normal renal function; oral, 375 mg, single dose, geometric mean).
`CC[C@H](C)[C@H](NC(=O)[C@H](CC(C)C)NC(=O)[C@H](Cc1c[nH]c2ccccc12)NC(=O)[C@H](CCC(N)=O)NC(=O)[C@@H](NC(=O)[C@H](Cc1ccccc1)NC(=O)[C@H](C)NC(=O)[C@H](CCCCNC(=O)COCCOCCNC(=O)COCCOCCNC(=O)CC[C@H](NC(=O)CCCCCCCCCCCCCCCCCCC(=O)O)C(=O)O)NC(=O)[C@H](CCC(N)=O)NC(=O)[C@H](C)NC(=O)[C@@H](NC(=O)[C@H](CCCCN)NC(=O)[C@H](CC(=O)O)NC(=O)[C@H](CC(C)C)NC(=O)C(C)(C)NC(=O)[C@@H](NC(=O)[C@H](CO)NC(=O)[C@H](Cc1ccc(O)cc1)NC(=O)[C@H](CC(=O)O)NC(=O)[C@H](CO)NC(=O)[C@@H](NC(=O)[C@H](Cc1ccccc1)NC(=O)[C@@H](NC(=O)CNC(=O)[C@H](CCC(=O)O)NC(=O)C(C)(C)NC(=O)[C@@H](N)Cc1ccc(O)cc1)[C@@H](C)O)[C@@H](C)O)[C@@H](C)CC)[C@@H](C)CC)C(C)C)C(=O)N[C@@H](C)C(=O)NCC(=O)NCC(=O)N1CCC[C@H]1C(=O)N[C@@H](CO)C(=O)N[C@@H](CO)C(=O)NCC(=O)N[C@@H](C)C(=O)N1CCC[C@H]1C(=O)N1CCC[C@H]1C(=O)N1CCC[C@H]1C(=O)N[C@@H](CO)C(N)=O` has a Tmax of 18 h (human, severe renal impairment, plasma; subcutaneous, 5 mg single dose, median).
For `Nc1ncnc2c([C@@H]3N[C@H](CO)[C@@H](O)[C@H]3O)c[nH]c12`, the inhibition was 25.8% (Sudan ebolavirus; viral replication; HeLa, Boniface; 3.1 µM).
The IC50 of `tricresyl phosphate` is reported as 9.7 ± 1.6 µM (KCNH2 (Homo sapiens, UniProt Q12809); thallium flux, inhibitor; hERG transduced cells).
`CC(C)C(=O)OC[C@H]1O[C@@H](n2ccc(NO)nc2=O)[C@H](O)[C@@H]1O` has a remaining compound of 0% (rat plasma; 100 µM, 0.5 h, with: digitonin 100 µM).
`CC(C)C[C@H](NC(=O)[C@H](CC(=O)O)NC(=O)CNC(=O)[C@H](CCCNC(=N)N)NC(=O)[C@H](CC(C)C)NC(=O)[C@H](CC(N)=O)NC(=O)[C@@H]1CCCN1C(=O)[C@@H](NC(=O)[C@H](C)NC(=O)[C@H](CC(N)=O)NC(=O)CCOCCOCCOCCOCCOCCOCCOCCOCCOCCOCCOCCOCCOCCOCCOCCOCCOCCOCCOCCOCCOCCOCCOCCOCCOCCOCCOCCOCCNC(=O)c1ccc(F)cc1)C(C)C)C(=O)N[C@@H](CCC(N)=O)C(=O)N[C@H](C(=O)N[C@@H](CC(C)C)C(=O)N[C@@H](C)C(=O)N[C@@H](CCC(N)=O)C(=O)N[C@@H](CCCCN)C(=O)N[C@H](C(=O)N[C@@H](C)C(=O)N[C@@H](CCCNC(=N)N)C(=O)N[C@H](C(=O)NCCOCCOCCOCCOCCOCCOCCOCCOCCOCCOCCOCCOCCOCCOCCOCCOCCOCCOCCOCCOCCOCCOCCOCCOCCOCCOCCOCCOCCC(N)=O)[C@@H](C)O)C(C)C)C(C)C` [fluorine-18 labelled] gave a lung uptake of 2 to 3 %ID/g (female athymic nude mouse, lung; intravenous, range over all time points).
Under “lowest cytotoxic concentration”, `CC(C)C[C@H](NC(=O)[C@H](CCCCN)NC(=O)[C@H](CCCCN)NC(=O)[C@H](CC(C)C)NC(=O)[C@H](CCCCN)NC(=O)[C@H](CC(C)C)NC(=O)[C@H](CC(C)C)NC(=O)CNC(=O)[C@H](CC(C)C)NC(=O)[C@H](CC(C)C)NC(=O)[C@H](CC(C)C)NC(=O)[C@H](CCCCN)NC(=O)[C@@H](N)CCCCN)C(=O)O` is recorded as 256 µg/mL (HEK-293T; cell death; 24 h, 10% cell death).
The serum AST of `CC[C@H](C)[C@H](NC(=O)[C@H](CC(C)C)NC(=O)[C@H](Cc1c[nH]c2ccccc12)NC(=O)[C@H](CCC(N)=O)NC(=O)[C@@H](NC(=O)[C@H](Cc1ccccc1)NC(=O)[C@H](C)NC(=O)[C@H](CCCCNC(=O)COCCOCCNC(=O)COCCOCCNC(=O)CC[C@H](NC(=O)CCCCCCCCCCCCCCCCCCC(=O)O)C(=O)O)NC(=O)[C@H](CCC(N)=O)NC(=O)[C@H](C)NC(=O)[C@@H](NC(=O)[C@H](CCCCN)NC(=O)[C@H](CC(=O)O)NC(=O)[C@H](CC(C)C)NC(=O)C(C)(C)NC(=O)[C@@H](NC(=O)[C@H](CO)NC(=O)[C@H](Cc1ccc(O)cc1)NC(=O)[C@H](CC(=O)O)NC(=O)[C@H](CO)NC(=O)[C@@H](NC(=O)[C@H](Cc1ccccc1)NC(=O)[C@@H](NC(=O)CNC(=O)[C@H](CCC(=O)O)NC(=O)C(C)(C)NC(=O)[C@@H](N)Cc1ccc(O)cc1)[C@@H](C)O)[C@@H](C)O)[C@@H](C)CC)[C@@H](C)CC)C(C)C)C(=O)N[C@@H](C)C(=O)NCC(=O)NCC(=O)N1CCC[C@H]1C(=O)N[C@@H](CO)C(=O)N[C@@H](CO)C(=O)NCC(=O)N[C@@H](C)C(=O)N1CCC[C@H]1C(=O)N1CCC[C@H]1C(=O)N1CCC[C@H]1C(=O)N[C@@H](CO)C(N)=O` is reported as 18.4 ± 0.5 U/L (healthy subjects, single ascending dose; 1.0 mg, day 29).
Under “fold reduction of activity”, `CC[C@H](C)[C@H](NC(=O)[C@H](C)NC(=O)[C@H](CCC(=O)O)NC(=O)[C@H](CCC(=O)O)NC(=O)[C@H](CC(C)C)NC(=O)[C@H](CCCCN)NC(=O)[C@H](CCCCN)NC(=O)[C@H](CCSC)NC(=O)[C@H](CCC(=O)O)NC(=O)[C@H](Cc1ccc(O)cc1)NC(=O)[C@H](CCC(=O)O)NC(=O)[C@H](CC(C)C)NC(=O)[C@H](CC(=O)O)NC(=O)[C@H](CC(C)C)NC(=O)[C@H](Cc1ccccc1)NC(=O)[C@@H](NC(=O)[C@@H](NC(=O)[C@H](CC(N)=O)NC(=O)[C@@H](NC(=O)[C@H](CCC(N)=O)NC(=O)[C@H](CC(=O)O)NC(=O)[C@H](CC(C)C)NC(=O)[C@@H](N)CO)[C@@H](C)CC)C(C)C)[C@@H](C)O)C(=O)N[C@@H](CCCCN)C(=O)N[C@@H](CCCCN)C(=O)N[C@@H](CC(C)C)C(=O)N[C@@H](CCC(=O)O)C(=O)N[C@@H](CCC(=O)O)C(=O)N[C@@H](CO)C(=O)N[C@@H](Cc1ccc(O)cc1)C(=O)N[C@H](C(=O)N[C@@H](CC(=O)O)C(=O)N[C@@H](CC(C)C)C(=O)N[C@@H](CCCCN)C(=O)N[C@@H](CCC(=O)O)C(=O)N[C@@H](CC(C)C)C(=O)NCC(=O)N[C@@H](CO)C(=O)NCC(=O)N[C@@H](CO)C(=O)NCC(=O)NCCOCCOCCOCCOCCC(=O)N[C@@H](CSCC(=O)O[C@H]1CC[C@@]2(C)C(=CC[C@H]3[C@@H]4CC[C@H]([C@H](C)CCCC(C)C)[C@@]4(C)CC[C@@H]32)C1)C(N)=O)[C@@H](C)CC` is recorded as roughly 44 fold (SARS-CoV-2; pseudovirus infection; concentration not given, 4 °C, storage).
The AUC(0-168 h) of `CC[C@H](C)[C@H](NC(=O)[C@H](CC(C)C)NC(=O)[C@H](Cc1c[nH]c2ccccc12)NC(=O)[C@H](CCC(N)=O)NC(=O)[C@@H](NC(=O)[C@H](Cc1ccccc1)NC(=O)[C@H](C)NC(=O)[C@H](CCCCNC(=O)COCCOCCNC(=O)COCCOCCNC(=O)CC[C@H](NC(=O)CCCCCCCCCCCCCCCCCCC(=O)O)C(=O)O)NC(=O)[C@H](CCC(N)=O)NC(=O)[C@H](C)NC(=O)[C@@H](NC(=O)[C@H](CCCCN)NC(=O)[C@H](CC(=O)O)NC(=O)[C@H](CC(C)C)NC(=O)C(C)(C)NC(=O)[C@@H](NC(=O)[C@H](CO)NC(=O)[C@H](Cc1ccc(O)cc1)NC(=O)[C@H](CC(=O)O)NC(=O)[C@H](CO)NC(=O)[C@@H](NC(=O)[C@H](Cc1ccccc1)NC(=O)[C@@H](NC(=O)CNC(=O)[C@H](CCC(=O)O)NC(=O)C(C)(C)NC(=O)[C@@H](N)Cc1ccc(O)cc1)[C@@H](C)O)[C@@H](C)O)[C@@H](C)CC)[C@@H](C)CC)C(C)C)C(=O)N[C@@H](C)C(=O)NCC(=O)NCC(=O)N1CCC[C@H]1C(=O)N[C@@H](CO)C(=O)N[C@@H](CO)C(=O)NCC(=O)N[C@@H](C)C(=O)N1CCC[C@H]1C(=O)N1CCC[C@H]1C(=O)N1CCC[C@H]1C(=O)N[C@@H](CO)C(N)=O` is reported as 357 µg·h/mL (human, plasma; subcutaneous, 15.0 mg once weekly, week 23, multiple doses).
For `CC(C)(C)[C@H](NC(=O)C(F)(F)F)C(=O)N1C[C@H]2[C@@H]([C@H]1C(=O)N[C@H](C#N)C[C@@H]1CCNC1=O)C2(C)C`, the AUC(0-t) was 2.12 µg·h/mL (human, fasted; oral, 150 mg single dose, no ritonavir).
